Results from different studies.
A part holds a random share of what one study measured. Substitutions count along the parent as printed.

Block 1 — target: CCND1, cyclin fold, Cln2 fusion (human); method: yeast growth competition, sequencing; matrix: yeast; setting: weak parent motif; reference: not given; reading: higher = stronger binding; quantity: normalised enrichment score
Starting sequence: MASTL docking peptide (human); PMIAKNLMCELDE
PMIAKNLDCELDE [M8D]: 0.3
PMIAKNRMCELDE [L7R]: -0.21
PMIAKNLMWELDE [C9W]: 0.144
PMIAKNYMCELDE [L7Y]: 0.00204
PMIAKNVMCELDE [L7V]: -0.147
PMGAKNLMCELDE [I3G]: 0.371
PMIAKNLMCLLDE [E10L]: 0.186
PMIAHNLMCELDE [K5H]: -0.148
PVIAKNLMCELDE [M2V]: 0.318
PMIAKNLMCECDE [L11C]: -0.00821
PMIAYNLMCELDE [K5Y]: 0.38
PMIAKNLMCEADE [L11A]: -0.00361
PWIAKNLMCELDE [M2W]: 0.0681
PMPAKNLMCELDE [I3P]: 0.101
PMIAKNLICELDE [M8I]: -0.0653

Block 2 — target: CEBPD, bZIP domain (human); method: DHFR protein complementation; matrix: yeast; reference: wild-type JUN-FOS pair; reading: higher = stronger binding; quantity: binding fitness
Setting: single substitutions, most at no-binding floor
Starting sequence: JUN, bZIP domain (human); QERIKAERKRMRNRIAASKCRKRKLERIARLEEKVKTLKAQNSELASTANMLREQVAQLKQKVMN; partner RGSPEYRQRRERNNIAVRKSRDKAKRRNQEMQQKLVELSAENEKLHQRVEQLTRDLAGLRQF
L31K: -1.5 natural log
A57S: -1.42 natural log
S47M: -1.31 natural log
L59P: -1.37 natural log
V35F: -1.35 natural log
V35R: -1.49 natural log
S43L: -1.27 natural log
A46I: -1.34 natural log
T48I: -1.43 natural log
T48H: -1.47 natural log
A49G: -1.5 natural log
A40Y: -1.44 natural log
K39E: -1.2 natural log
E54H: -1.49 natural log

Block 3 — method: RNA Bind-n-Seq; molecule type: RNA; matrix: in vitro; concentration: 1 µM; setting: whole 134-nt RNA, ends assumed; with: 150 mM KCl; reference: input library; reading: higher = stronger binding; quantity: log2 enrichment
Target: Ras GTPase-activating protein-binding protein 1, C-terminal RGG region (G3BP1, Homo sapiens, UniProt Q13283)
Sequence of UniProt Q13283 (whole entry, looked up): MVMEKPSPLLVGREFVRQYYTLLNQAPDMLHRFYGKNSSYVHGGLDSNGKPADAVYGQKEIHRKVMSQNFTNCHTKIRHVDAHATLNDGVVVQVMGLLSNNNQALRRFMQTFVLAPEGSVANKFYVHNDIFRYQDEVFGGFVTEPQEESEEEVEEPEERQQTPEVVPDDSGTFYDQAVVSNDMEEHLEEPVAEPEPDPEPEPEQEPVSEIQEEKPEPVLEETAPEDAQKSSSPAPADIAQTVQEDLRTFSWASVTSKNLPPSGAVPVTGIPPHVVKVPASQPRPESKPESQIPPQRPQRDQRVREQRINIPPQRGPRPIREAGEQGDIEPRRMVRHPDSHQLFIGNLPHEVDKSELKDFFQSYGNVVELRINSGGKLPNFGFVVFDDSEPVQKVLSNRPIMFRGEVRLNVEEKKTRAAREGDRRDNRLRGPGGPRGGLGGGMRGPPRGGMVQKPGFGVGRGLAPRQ
Shared flanks, not repeated: GGGAGUUCUACAGUCCGACGAUC … UGGAAUUCUCGGGUGUCAAGG
UUCCUUCCACGACCCCUGAAGAGCAGCGGUGGGUCUGAGCAUCCUAUCUCCAGGAAGCAGGCCAGCAGGCAAGCCAGCUGCCACCUCGUC: -0.212
ACCAUGCAGGUGGGCUUCUUUGGGAAGUGGGGCAAGGGGGGGAUAGGGAGGGGGGUAACACUUUGGGAACAGGUGGUCCCAGGUCGUUUC: -1.36
AAGUCCUGUGCUACACAUCGUAUGUACCGAAUCGGAAAGGAAAAAGGAAAAAAAGGAAAGUAUUAUGUUACGCCGUUCGGAUCUGCACUU: -2
CUCAAGUCCUGUGCUACACAUCGUAUGUACCGAAUCGGUUUGGUUUUUGGAGGAAAGUAUUAUGUUACGCCGUUCGGAUCUGCACUUCCA: -0.911
UCCUGUGCUACACAUCGUAUGUACCGAAUCAAAUUUUUAAACCCCCAAAUUUUUUUAAAAAAGUAUUAUGUUACGCCGUUCGGAUCUGCA: -0.171
CAAGUCCUGUGCUACACAUCGUAUGUACCGAAUCGGAAAGGUUUGGUUUUUUUGGAAAGUAUUAUGUUACGCCGUUCGGAUCUGCACUUC: -1.7
UCCUCAAGUCCUGUGCUACACAUCGUAUGUACCGAAUCGGAGGAGGGAGGGGAAAGUAUUAUGUUACGCCGUUCGGAUCUGCACUUCCAG: -0.262
GUCCUGUGCUACACAUCGUAUGUACCGAAUCGGGGAAAGGGGUUUUUUUGGGGUGGGGAAAGUAUUAUGUUACGCCGUUCGGAUCUGCAC: 1.74
UGGGAUGUGGAUUUUGUUUAUUUUUUUAGCUCAUUUCCAGGGGUGGGAAUUUUUUUUUAAUAUGUGUCAUGAAUAAAGUUGUUUUUGAAA: 4.05

Block 4 — method: RNA Bind-n-Seq; molecule type: RNA; matrix: in vitro; concentration: not given; reference: input RNA pool; reading: higher = stronger binding; quantity: bound/input enrichment
Target: RING finger protein unkempt homolog, zinc fingers 1-6, GST-SBP tag (UNK, Homo sapiens, UniProt Q9C0B0, residues 30-357)
Setting: RNA with constant flanks, human and mouse sites, ends assumed
Shared flanks, not repeated: GGGAGUUCUACAGUCCGACGAUC … CAACAGAGGAUUGAGCAUCA
Target sequence (chain): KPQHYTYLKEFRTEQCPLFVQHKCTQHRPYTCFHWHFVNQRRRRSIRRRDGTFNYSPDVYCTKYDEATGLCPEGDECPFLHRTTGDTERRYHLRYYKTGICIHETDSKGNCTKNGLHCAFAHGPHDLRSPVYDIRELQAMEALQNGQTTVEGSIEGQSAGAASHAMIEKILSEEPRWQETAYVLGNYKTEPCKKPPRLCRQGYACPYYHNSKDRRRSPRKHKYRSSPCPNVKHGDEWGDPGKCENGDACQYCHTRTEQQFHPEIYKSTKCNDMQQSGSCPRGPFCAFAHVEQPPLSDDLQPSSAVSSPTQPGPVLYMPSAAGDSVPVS
GCUCCCAUUGGUGUACACCCAUCCCUGGCACCUUUGGCCAAAAUCCUCGAGGGCUCUGGAGUGGAUGCAAAGGUUGAGCCAGAAGUGAAAGACUCCCUGGGGGUUUACUGUAUUGAUGCC: 0.267 ratio
CAGAUCCCUUCCAGCUGAGCCCCUCCCCUCCCCCCACCAUGUGUUUCUUGGUUUUCCUUUUGUUUGAUUGUCCCUCUGCCCCUCCUUCCUUGGAUUGUAAUGUAAAAUUCUUUUACCAUG: 1.71 ratio
GUUACAGGUCCUGGUGGUGUUCCAGUUCAAGGCAGUAAAUAUGCAGCAGACCGUAACCAUUAUAGACGCUAUCCACGUCGUAGGGGUCCUCCACGCAAUUACCAGCAAAAUUACCAGAAU: 0.214 ratio
UAUGGUCUGGUCUUCGCUGGUGGAGCCAGUGGCUUGCAGAUUUUUCCUACUAAAAAUCUUCUUAUUCAAAAUAAACCCGGAGAUGAUCCCAACAAAAUAGUUGAUAAAGUCCAAGGCUUG: 0.361 ratio
AGUUUUGUCUGAGAUGCACCUUGCAUGGUACGUGUGUGAGAGGUUGUGCAAGUUCUGAGACUUAGACAAUUCAGAAGUCACCCUUCUGAGGGAACAGUUCCCAAAAUGGAGCAAUAAAGG: 0.247 ratio
GCUGGUCAUCCUCUGGCACAGAACGAACGUUGUCUUCACAUGUUUUUACAAGAUGAAAUAAUAGAUAAAAGCUAUACUCCAUCUAAAAUAAGACAUGCCUGAAAUUUGGCAAGAAGGGGC: 0.172 ratio
CAUGAAACAUGGGAUGGUGGGUGGCAGGGAGGGAAGGCUAGACCAGCCAUCUUGUCUUUUCUCCCACCAGAAUGUGGACGAUGCAAUGACGGUGCUCCCGAAACUGGCCACAGGUCUGGA: 0.0565 ratio
AGAUGCAGAGCCAGGCCCCCUGGAAGAGCUUGCAGCAACCCCUCCUUCCUUCAGUUUCAACUAGACUUCUAUCAAGUCUACUUUCUGGCCCUGGCAGCGGACUGGCUCCAAGCUCCCUAC: 0.147 ratio

Block 5 — method: universal PBM; molecule type: double-stranded DNA, one strand shown; matrix: in vitro; concentration: not given; reading: higher = stronger binding; quantity: E-score
Target: Sal-like protein 4, full length isoform B (SALL4, Homo sapiens, UniProt Q9UJQ4-2, residues 1-616)
Setting: 8-mer, flanks averaged, mean of replicates
Construct (chain): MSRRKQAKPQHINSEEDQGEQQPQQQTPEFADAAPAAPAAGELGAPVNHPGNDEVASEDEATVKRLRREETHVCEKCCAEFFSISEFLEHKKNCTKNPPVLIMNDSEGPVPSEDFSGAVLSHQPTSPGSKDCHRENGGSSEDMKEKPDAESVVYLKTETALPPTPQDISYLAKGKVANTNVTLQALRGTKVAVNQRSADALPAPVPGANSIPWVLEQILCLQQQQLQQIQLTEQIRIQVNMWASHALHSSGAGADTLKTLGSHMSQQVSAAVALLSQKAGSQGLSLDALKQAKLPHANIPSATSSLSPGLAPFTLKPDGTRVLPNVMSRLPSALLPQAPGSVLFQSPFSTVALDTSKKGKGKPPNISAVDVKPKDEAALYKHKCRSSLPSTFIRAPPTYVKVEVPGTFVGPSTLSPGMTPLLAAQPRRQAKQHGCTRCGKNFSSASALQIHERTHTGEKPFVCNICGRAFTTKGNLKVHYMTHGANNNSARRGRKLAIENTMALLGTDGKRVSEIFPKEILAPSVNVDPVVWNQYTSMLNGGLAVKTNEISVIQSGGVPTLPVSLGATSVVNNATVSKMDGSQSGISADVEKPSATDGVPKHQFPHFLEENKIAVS
CTCTTCGA: 0.0106
CAAGAAGG: -0.0954
ATTGCCCA: 0.0701
ACGGCTAT: 0.0496
ATATTGCG: 0.326
GATGGTGC: -0.21
AGATGACA: 0.00744
AGAAACGG: -0.0502
GAAGACAA: 0.141
AAAATCCA: 0.185
ACCTACTG: -0.0111
CGGACCGC: -0.358
GTACCGCA: -0.171
ACGCCCAC: -0.17
AACCCGCG: -0.267
GATACAGC: 0.156
AAGCGTTG: -0.0644
AAAAGTCG: 0.0315
GGACTGGA: -0.129
AGGTCTGC: -0.133

Block 6 — method: protein binding microarray; molecule type: double-stranded DNA, one strand shown; matrix: in vitro; concentration: not given; reference: not given; reading: higher = stronger binding; quantity: E-score
Target: Histone acetyltransferase KAT6A, winged helix 2, GST fusion (KAT6A, Homo sapiens, UniProt Q92794, residues 85-181)
Setting: 8-mer, flanks averaged, mean of 2 arrays, mostly near background
Target sequence (chain): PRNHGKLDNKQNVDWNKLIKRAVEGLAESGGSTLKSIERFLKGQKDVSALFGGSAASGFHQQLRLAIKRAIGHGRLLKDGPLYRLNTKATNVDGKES
AGCATGAC: 0.0485
AAACGTCG: -0.0897
CCGGTAGC: -0.135
CGGTCTTA: -0.198
AGGGCACG: -0.0941
CGCGCAAG: 0.191
AATTGCAT: -0.0188
TACAATAA: -0.0862
CGAGAGAA: 0.16
AAATGCTC: 0.00757
CGCACCAA: 0.112
AGCCAAGG: 0.0186
ATATGCTC: 0.0636
CGTGGAGC: 0.098
ATCTTTAA: 0.122
CGTGTATA: -0.226
ACGAACCT: 0.07
ACAACGCA: -0.079
CGTTAAGC: 0.0001

Further values, each from its own experiment
PhoQ, residues 284 288 289 292 302 303 TYGVAM — fold induction (PhoP, residues 12 14 15 18 19 LQHIR (Escherichia coli, UniProt P23836); Sort-seq, refers to: YFP reporter; E. coli; PhoQ-PhoP variant library, with: 10 µM Mg2+; reference: high Mg2+ state, higher = stronger signaling): 12.3

For quick reference, copied from above (block 1):
PMIAKNLMWELDE [C9W]: 0.144
PMIAKNYMCELDE [L7Y]: 0.00204
PMIAKNVMCELDE [L7V]: -0.147
PMGAKNLMCELDE [I3G]: 0.371
PMIAKNLMCLLDE [E10L]: 0.186
PMIAHNLMCELDE [K5H]: -0.148
PVIAKNLMCELDE [M2V]: 0.318
